Results pooled from the literature.
Every numbered part comes from another study and shows a few of its results, in no order.

Sample 1
Target: Fragile X messenger ribonucleoprotein 1, C-terminal low-complexity region (Fmr1, Mus musculus, UniProt P35922)
Method: RNA Bind-n-Seq
Form: RNA
Matrix: in vitro
Tested at: 200 nM
Notes: whole 134-nt RNA, ends assumed
With: 150 mM LiCl
Relative to: input library
Reading: higher = stronger binding
Each molecule: 7-deaza-guanosine replaces G
With `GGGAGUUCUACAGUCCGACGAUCUUGAACAUCUGCAGGAAAAGAGGCGAGAGGGCACUUUGAGAGUGGAUACCUACACUCUAGUGCAGCCUGAGGCAGAAGACCAUGUUGAGAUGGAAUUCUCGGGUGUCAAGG` the log2 enrichment was -1.54.
The log2 enrichment of `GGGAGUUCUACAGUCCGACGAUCUGCGUGCUUGUGUCCUGGAGCUGGAAGAGCGGCUGAGCACGCAGGAGGGCUUGGUGCAAGAGCUUCAGAAAAAACAGGUGGAAUUGCAGGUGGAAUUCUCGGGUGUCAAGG` is reported as -0.485.
With `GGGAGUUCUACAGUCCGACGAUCUUCUCUCAUUUCUUCUGAAAUACAGGGCAAAUUGGAUCAAGGCAGUUCAGAUGUGUAGCAAACCCAGAGAAUUUGCAUUGGCUUUAGCCAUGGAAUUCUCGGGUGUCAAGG` the log2 enrichment was -1.59.
The log2 enrichment of `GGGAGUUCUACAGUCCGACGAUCAAGUCCUGUGCUACACAUCGUAUGUACCGAAUCGGUUUUUGGAAAGGAAAAAAAGGAAAGUAUUAUGUUACGCCGUUCGGAUCUGCACUUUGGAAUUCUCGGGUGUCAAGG` is reported as -2.
For `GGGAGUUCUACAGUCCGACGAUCCAAGUCCUGUGCUACACAUCGUAUGUACCGAAUCGGGAGGGUGGGAAAAAAAGGGAAAGUAUUAUGUUACGCCGUUCGGAUCUGCACUUCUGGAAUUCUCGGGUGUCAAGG`, the log2 enrichment was -0.215.
`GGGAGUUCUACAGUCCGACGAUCAGUCCUGUGCUACACAUCGUAUGUACCGAAUCGGGGAAAAAAAGGGGAGGGGAGGGGAAAGUAUUAUGUUACGCCGUUCGGAUCUGCACUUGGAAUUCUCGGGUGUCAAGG` gave a log2 enrichment of 0.0139.
`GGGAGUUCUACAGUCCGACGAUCGUCCUGUGCUACACAUCGUAUGUACCGAAUCGGGGUUUUUGGGGAGGGGUUUUUGGGGAAAGUAUUAUGUUACGCCGUUCGGAUCUGCACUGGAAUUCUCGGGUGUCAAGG` has a log2 enrichment of -0.0852.
With `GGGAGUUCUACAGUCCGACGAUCCCUGUGCUACACAUCGUAUGUACCGAAUCGGCCCCCCCGGCCCCCCCGGGGCCCCCCCGGAAAGUAUUAUGUUACGCCGUUCGGAUCUGCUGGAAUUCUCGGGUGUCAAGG` the log2 enrichment was 1.23.
For `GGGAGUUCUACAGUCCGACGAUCUAUUGAUGCAUUUGACCCUACACUGGCUCCAGCCACAGGAACUCCUGUUGUCGGGGGACUAACCUAUCGAGAAGGCAUGUAUAUUGCUGAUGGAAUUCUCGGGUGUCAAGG`, the log2 enrichment was 0.963.
`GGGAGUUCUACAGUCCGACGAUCCCUGUGCUACACAUCGUAUGUACCGAAUCGGGUUUUUUGGGUUUUUUGGGGUUUUUUGGGGAAAGUAUUAUGUUACGCCGUUCGGAUCUGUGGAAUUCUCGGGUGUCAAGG` has a log2 enrichment of -0.759.
`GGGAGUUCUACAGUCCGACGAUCUCCCAAUGCUCGGAGGAAGCCCAAGGGCAGCCCUCGUGUACCUGAUGCCAAGAAGCCUAAACCCAAGAAAGUAGCUCCCCUGAAAAUCAAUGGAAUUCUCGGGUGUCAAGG` has a log2 enrichment of 1.46.

Sample 2
Target: Interferon regulatory factor 3, full length, phosphomimetic (IRF3, Homo sapiens, UniProt Q14653, residues 1-427, S386D/S396D/S398D/S402D/T404D/S405D)
UniProt Q14653, sequence (whole entry, unmodified, looked up): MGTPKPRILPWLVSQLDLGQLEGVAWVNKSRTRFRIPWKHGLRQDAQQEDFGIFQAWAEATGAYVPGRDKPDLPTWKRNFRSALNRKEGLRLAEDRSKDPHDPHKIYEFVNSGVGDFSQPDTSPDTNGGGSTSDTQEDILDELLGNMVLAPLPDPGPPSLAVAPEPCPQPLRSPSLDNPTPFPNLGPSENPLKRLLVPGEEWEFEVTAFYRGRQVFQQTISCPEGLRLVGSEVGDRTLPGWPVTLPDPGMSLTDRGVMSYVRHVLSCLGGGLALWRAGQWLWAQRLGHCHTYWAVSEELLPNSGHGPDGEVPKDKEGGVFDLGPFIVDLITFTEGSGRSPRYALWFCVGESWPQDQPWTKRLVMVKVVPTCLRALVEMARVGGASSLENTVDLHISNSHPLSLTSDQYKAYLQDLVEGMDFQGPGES
Method: protein-binding microarray
Form: double-stranded DNA, one strand shown
Matrix: in vitro
Tested at: 2540 nM top
Notes: 60-bp whole probe
With: salmon DNA 0.4 mg/ml
Relative to: random background probes
Reading: higher = stronger binding
Constant ends, left off below: GCCTAGCAC … GTCTTGATTCGCTTGACGCTGCTG
`TGTTTTTGCTTTCTTTATGCGTGCTAG`: “fitted relative affinity” 2.74 z-score.
`TTAGGACTGCTTATCGTTTAGTGCTAG` — result for “fitted relative affinity”: -0.324 z-score.
Under “fitted relative affinity”, `TGTGCTTTCCTGATGGTCCTGTGCTAG` is recorded as 1.21 z-score.
`TTAGATTCCTGTTTCGATTAGTGCTAG` — result for “fitted relative affinity”: 4.12 z-score.
Under “fitted relative affinity”, `ACTGCATTCCCTTTCTCAACGTGCTAG` is recorded as 4.14 z-score.
`GACGGTATCGGGTATGGGGACGTGCTA` — result for “fitted relative affinity”: 1.53 z-score.
`TCACCTGTACATCTATGACTGTGCTAG`: “fitted relative affinity” 0.177 z-score.
`TTTCCACTTTCTTTTGCTTGGTGCTAG` — result for “fitted relative affinity”: 5.74 z-score.
`GAAGATATCGGGTTTCGAGACGTGCTA` — result for “fitted relative affinity”: 1.06 z-score.
`TGTTGTCTGTGTTTCCTTGTGTGCTAG`: “fitted relative affinity” 1.32 z-score.
Under “fitted relative affinity”, `GACGGAATGGGGACTGGGGACGTGCTA` is recorded as -0.613 z-score.
`TCAATTCTCTGCTTGCGACTGTGCTAG` — result for “fitted relative affinity”: 0.454 z-score.
For `TTAGATATCGGGTATCCATTAGTGCTA`, “fitted relative affinity” read 0.575 z-score.
`GACGGTTTCCTTATCCTGAAGTGCTAG` — result for “fitted relative affinity”: 7.9 z-score.
Under “fitted relative affinity”, `TTATGACTGGACTATCGGTTAGTGCTA` is recorded as -0.188 z-score.
For `AGAAACTTTTTTCTGATTGAGTGCTAG`, “fitted relative affinity” read 1.44 z-score.

Sample 3
Target: RNA binding protein fox-1 homolog 2, RRM domain, GST-SBP tag (RBFOX2, Homo sapiens, UniProt O43251-10, residues 100-194)
Method: RNA Bind-n-Seq
Form: RNA
Matrix: in vitro
Tested at: 365 nM
Notes: natural RNA segment, single round, ends assumed
Relative to: no-protein control
Reading: higher = stronger binding
Construct (chain): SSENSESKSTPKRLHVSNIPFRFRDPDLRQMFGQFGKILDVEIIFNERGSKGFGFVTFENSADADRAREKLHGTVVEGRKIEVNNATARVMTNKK
For `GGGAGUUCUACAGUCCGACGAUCUUUGUAUUAGAGAAGGCACUUUGAUUGUACAAUACUUCACAUUGCUUUUUUAAUGCAUAAAGGUUUGAAGAAAAAUCAGACUCUGCCCCCAUGGUGAGUUAGCAUGAUUCUGGAAUUCUCGGGUGCCAA`, “RBNS enrichment (R)” read 3.15.
`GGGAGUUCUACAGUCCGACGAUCUGAGGGCUGCCUCUGUGCCAGGAUGCCAAGGACCGCUGCACAUUUCCAAAUUCACAGCAGUGGAUCCCAUGCCACUUUGCUGUCCUGAGCACCCCAGACUUGACUGUGUAUGGAAUUCUCGGGUGCCAA`: “RBNS enrichment (R)” 11.5.
Under “RBNS enrichment (R)”, `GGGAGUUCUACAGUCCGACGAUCCAAUGGAUGUGGUUGUCAAUGUGAAUAGCUUAGAGUACUACAAAGGGUAAGCUAACUGAAUGCCUUGAAAAUAUUAUCCACUGGUCGGUCAUAUGGGAGACUUGUUUCAGUGGAAUUCUCGGGUGCCAA` is recorded as 0.712.
Under “RBNS enrichment (R)”, `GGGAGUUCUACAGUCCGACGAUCAAAAUCACUGUCAGAGCUAGCCUUGCCUAGUGAGUCUGUGUCCACAGGCUGUAACAGGGUGGAAGAGCAACAGUAGGCAGCCCAGGGAGCAGCAUGUGCUCACGGCAUCAUGGAAUUCUCGGGUGCCAA` is recorded as 5.2.
`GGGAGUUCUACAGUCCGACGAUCUAAAACAGAACUUUCCCAUUAUCUGUAGGGAACAGAGUAACGCAUAGUCUUUAAAAAUCAGUCCCAGAAGAGAGCAUUGCUUUACUGAGGGGCCUUCUCAGUGCAGUGUCUGGAAUUCUCGGGUGCCAA` — result for “RBNS enrichment (R)”: 0.882.
`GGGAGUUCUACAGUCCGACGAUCUAGGACUUUUAAACUUUAGAUCAAAAGAUAUGGUCCUUUUUAACUUUAUUUUUAAGGAGCAGACUUUAAAAUGAGCCCUGACCUUUACCCAUUAUAACAGAAUUUGUCAAUGGAAUUCUCGGGUGCCAA` — result for “RBNS enrichment (R)”: 0.483.
Under “RBNS enrichment (R)”, `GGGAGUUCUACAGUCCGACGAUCGGUUGACAGGCCUGUGAAAUCCCCUGUCCCACCCUGGAAUUUCAAAUAAAGAGCUUUUUACCCCUUCUUGCGUGGUGCAUAGGGGACGGGAAGCUGGGAACUAGUCAGAGUGGAAUUCUCGGGUGCCAA` is recorded as 0.393.
`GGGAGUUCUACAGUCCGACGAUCGUUGAUGUGGUAGCCACCUGCUGCAAUGGUUCCUCUUGUAGGUGAAUAAAUGUCUUGUCUACCCACACUCUUCCCAGGAUUGUGUCUCAUAAAAAUAUAUUUGGAAAUGUUGGAAUUCUCGGGUGCCAA`: “RBNS enrichment (R)” 1.08.
Under “RBNS enrichment (R)”, `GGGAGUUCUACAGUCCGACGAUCUAUUGUCAAUAUUUGAAGAAAAUCUUUUCUGAGCGCACCUAGGUGGCUUCUGACUUUGAUUUUCUGGCAAAACAUUGACUUUCCAUAGUGUUAGGGGCGGUGGUGGAGGUUGGAAUUCUCGGGUGCCAA` is recorded as 0.545.
Under “RBNS enrichment (R)”, `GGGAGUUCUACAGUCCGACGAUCAAGGAGGACAACCAUCUAUAACUUGGUGUCAUUGACAACUAUAUUAAUGUUUAUCCAGCUGCCGUAGUUUGAAACAUUCUGGGCUGGGAGAAGAGGGACCCCGGGGUUUCUGGAAUUCUCGGGUGCCAA` is recorded as 0.479.
Under “RBNS enrichment (R)”, `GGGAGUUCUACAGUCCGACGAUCAAAGGAGGAAAGGGGUGGAAAAAAACCGACUUUCUGCAUUUAACUACAAAAAAAGUUUAUGUUUAGUUUGGUAGAGGUGUUAUGUAUAAUGCUUUGUUAAAGAACCCCCUUGGAAUUCUCGGGUGCCAA` is recorded as 0.303.
Under “RBNS enrichment (R)”, `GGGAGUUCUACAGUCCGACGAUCAUGAACAUGGACUUAAAUGUUCUUUGAAAAAACCAAAGUUUUAAGAUUUGCUGUGUGAUGAAGUGACAGGGAGGGCCGGAGUCAGCAGGUGCCAGACUUUCUGUUCUGUCUGGAAUUCUCGGGUGCCAA` is recorded as 0.568.

Sample 4
Target: Sal-like protein 4, full length isoform B (SALL4, Homo sapiens, UniProt Q9UJQ4-2, residues 1-616)
Method: universal PBM
Form: double-stranded DNA, one strand shown
Matrix: in vitro
Tested at: not given
Notes: 8-mer, flanks averaged, mean of replicates
Reading: higher = stronger binding
The E-score of `GCTAGGAA` is reported as -0.0927.
`ATGGTACG` gave an E-score of 0.0902.
`CTCTTAGA` has an E-score of -0.0825.
The E-score of `GTATTGTA` is reported as 0.235.
With `GTTGCATA` the E-score was 0.115.
The E-score of `ACAAAGGA` is reported as 0.0744.
For `TCTGATAA`, the E-score was 0.132.
For `TCGGGTCA`, the E-score was -0.139.
For `AGCAGGTA`, the E-score was -0.047.
The E-score of `CATACCGA` is reported as 0.0863.
With `CATTCAGA` the E-score was 0.0148.
With `AGTCATTG` the E-score was 0.0766.
With `CTACAGGC` the E-score was -0.172.
The E-score of `GACTAAAA` is reported as 0.15.
For `CGCACAGA`, the E-score was -0.0605.
With `AAGAGCTC` the E-score was -0.313.
`CTTTGACC` has an E-score of 0.0529.
For `CAGGTGAC`, the E-score was -0.204.
`CGCACCAA` gave an E-score of -0.138.
`AAGGGCAA` gave an E-score of -0.105.
`AGGCCGTC` gave an E-score of -0.353.
With `ATGCGCCA` the E-score was 0.00795.
`AATTTAGC` gave an E-score of 0.213.
The E-score of `CAAAAATC` is reported as 0.237.
The E-score of `AATAGTTC` is reported as 0.246.

For quick reference, copied from above (sample 2):
`TTAGGACTGCTTATCGTTTAGTGCTAG` — result for “fitted relative affinity”: -0.324 z-score.
Under “fitted relative affinity”, `TGTGCTTTCCTGATGGTCCTGTGCTAG` is recorded as 1.21 z-score.
`TTAGATTCCTGTTTCGATTAGTGCTAG` — result for “fitted relative affinity”: 4.12 z-score.
Under “fitted relative affinity”, `ACTGCATTCCCTTTCTCAACGTGCTAG` is recorded as 4.14 z-score.
`GACGGTATCGGGTATGGGGACGTGCTA` — result for “fitted relative affinity”: 1.53 z-score.
`TCACCTGTACATCTATGACTGTGCTAG`: “fitted relative affinity” 0.177 z-score.
